Experimental data pooled from the literature.
Each numbered part is a random draw from the data of one study; scales do not carry over between parts. “And” joins repeats or separate records; there may be more than shown.
Chain of UniProt P35968 (whole entry, looked up): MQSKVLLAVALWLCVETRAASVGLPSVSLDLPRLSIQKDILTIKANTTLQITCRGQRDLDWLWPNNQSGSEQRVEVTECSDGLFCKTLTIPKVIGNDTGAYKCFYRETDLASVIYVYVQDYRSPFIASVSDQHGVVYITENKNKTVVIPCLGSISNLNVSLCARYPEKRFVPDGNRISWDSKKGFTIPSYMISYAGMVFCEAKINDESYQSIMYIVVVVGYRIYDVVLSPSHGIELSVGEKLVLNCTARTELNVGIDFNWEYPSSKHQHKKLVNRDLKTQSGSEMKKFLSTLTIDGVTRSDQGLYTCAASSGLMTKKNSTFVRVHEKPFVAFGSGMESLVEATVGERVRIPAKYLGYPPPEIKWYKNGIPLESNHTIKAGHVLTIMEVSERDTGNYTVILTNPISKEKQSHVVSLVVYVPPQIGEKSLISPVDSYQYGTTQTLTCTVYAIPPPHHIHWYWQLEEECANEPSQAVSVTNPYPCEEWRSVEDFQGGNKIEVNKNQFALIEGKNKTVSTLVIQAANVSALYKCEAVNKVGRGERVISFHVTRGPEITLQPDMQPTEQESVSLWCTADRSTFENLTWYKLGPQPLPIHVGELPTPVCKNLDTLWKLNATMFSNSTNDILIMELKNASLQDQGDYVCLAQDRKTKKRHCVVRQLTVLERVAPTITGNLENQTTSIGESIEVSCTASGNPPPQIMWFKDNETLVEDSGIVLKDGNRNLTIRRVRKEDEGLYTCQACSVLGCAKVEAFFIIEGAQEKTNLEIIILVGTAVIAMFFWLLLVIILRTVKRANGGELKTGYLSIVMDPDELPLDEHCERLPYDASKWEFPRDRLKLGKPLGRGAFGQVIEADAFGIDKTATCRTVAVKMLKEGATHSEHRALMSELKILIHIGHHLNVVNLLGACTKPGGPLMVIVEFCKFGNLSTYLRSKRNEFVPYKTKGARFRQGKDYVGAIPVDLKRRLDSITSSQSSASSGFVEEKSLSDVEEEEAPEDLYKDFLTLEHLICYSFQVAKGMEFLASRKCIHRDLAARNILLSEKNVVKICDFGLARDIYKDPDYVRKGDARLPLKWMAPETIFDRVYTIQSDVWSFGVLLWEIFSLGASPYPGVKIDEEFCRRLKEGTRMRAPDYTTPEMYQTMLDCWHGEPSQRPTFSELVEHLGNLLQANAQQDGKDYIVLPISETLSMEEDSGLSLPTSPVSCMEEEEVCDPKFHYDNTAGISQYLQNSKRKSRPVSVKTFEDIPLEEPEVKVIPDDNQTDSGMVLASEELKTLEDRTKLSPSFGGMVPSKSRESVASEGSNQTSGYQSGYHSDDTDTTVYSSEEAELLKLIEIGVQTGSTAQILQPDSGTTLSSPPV
Chain of UniProt P34947 (whole entry, looked up): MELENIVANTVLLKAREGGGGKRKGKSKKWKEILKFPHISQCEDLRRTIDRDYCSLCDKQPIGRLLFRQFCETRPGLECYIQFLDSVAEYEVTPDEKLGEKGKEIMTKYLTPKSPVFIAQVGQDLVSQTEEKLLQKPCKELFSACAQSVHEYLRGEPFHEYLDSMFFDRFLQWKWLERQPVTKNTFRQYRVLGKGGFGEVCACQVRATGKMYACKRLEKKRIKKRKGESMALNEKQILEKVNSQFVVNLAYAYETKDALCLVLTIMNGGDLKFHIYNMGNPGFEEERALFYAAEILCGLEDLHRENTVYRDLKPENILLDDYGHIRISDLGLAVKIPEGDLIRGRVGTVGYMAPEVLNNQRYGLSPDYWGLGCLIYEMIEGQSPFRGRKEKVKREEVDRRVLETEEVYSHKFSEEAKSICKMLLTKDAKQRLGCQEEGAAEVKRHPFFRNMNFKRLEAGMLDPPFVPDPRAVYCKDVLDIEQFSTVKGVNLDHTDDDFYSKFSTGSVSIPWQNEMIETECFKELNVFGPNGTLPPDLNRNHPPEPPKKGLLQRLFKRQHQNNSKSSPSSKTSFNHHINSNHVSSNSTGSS
Chain of UniProt Q5S007 (whole entry, unmodified, looked up): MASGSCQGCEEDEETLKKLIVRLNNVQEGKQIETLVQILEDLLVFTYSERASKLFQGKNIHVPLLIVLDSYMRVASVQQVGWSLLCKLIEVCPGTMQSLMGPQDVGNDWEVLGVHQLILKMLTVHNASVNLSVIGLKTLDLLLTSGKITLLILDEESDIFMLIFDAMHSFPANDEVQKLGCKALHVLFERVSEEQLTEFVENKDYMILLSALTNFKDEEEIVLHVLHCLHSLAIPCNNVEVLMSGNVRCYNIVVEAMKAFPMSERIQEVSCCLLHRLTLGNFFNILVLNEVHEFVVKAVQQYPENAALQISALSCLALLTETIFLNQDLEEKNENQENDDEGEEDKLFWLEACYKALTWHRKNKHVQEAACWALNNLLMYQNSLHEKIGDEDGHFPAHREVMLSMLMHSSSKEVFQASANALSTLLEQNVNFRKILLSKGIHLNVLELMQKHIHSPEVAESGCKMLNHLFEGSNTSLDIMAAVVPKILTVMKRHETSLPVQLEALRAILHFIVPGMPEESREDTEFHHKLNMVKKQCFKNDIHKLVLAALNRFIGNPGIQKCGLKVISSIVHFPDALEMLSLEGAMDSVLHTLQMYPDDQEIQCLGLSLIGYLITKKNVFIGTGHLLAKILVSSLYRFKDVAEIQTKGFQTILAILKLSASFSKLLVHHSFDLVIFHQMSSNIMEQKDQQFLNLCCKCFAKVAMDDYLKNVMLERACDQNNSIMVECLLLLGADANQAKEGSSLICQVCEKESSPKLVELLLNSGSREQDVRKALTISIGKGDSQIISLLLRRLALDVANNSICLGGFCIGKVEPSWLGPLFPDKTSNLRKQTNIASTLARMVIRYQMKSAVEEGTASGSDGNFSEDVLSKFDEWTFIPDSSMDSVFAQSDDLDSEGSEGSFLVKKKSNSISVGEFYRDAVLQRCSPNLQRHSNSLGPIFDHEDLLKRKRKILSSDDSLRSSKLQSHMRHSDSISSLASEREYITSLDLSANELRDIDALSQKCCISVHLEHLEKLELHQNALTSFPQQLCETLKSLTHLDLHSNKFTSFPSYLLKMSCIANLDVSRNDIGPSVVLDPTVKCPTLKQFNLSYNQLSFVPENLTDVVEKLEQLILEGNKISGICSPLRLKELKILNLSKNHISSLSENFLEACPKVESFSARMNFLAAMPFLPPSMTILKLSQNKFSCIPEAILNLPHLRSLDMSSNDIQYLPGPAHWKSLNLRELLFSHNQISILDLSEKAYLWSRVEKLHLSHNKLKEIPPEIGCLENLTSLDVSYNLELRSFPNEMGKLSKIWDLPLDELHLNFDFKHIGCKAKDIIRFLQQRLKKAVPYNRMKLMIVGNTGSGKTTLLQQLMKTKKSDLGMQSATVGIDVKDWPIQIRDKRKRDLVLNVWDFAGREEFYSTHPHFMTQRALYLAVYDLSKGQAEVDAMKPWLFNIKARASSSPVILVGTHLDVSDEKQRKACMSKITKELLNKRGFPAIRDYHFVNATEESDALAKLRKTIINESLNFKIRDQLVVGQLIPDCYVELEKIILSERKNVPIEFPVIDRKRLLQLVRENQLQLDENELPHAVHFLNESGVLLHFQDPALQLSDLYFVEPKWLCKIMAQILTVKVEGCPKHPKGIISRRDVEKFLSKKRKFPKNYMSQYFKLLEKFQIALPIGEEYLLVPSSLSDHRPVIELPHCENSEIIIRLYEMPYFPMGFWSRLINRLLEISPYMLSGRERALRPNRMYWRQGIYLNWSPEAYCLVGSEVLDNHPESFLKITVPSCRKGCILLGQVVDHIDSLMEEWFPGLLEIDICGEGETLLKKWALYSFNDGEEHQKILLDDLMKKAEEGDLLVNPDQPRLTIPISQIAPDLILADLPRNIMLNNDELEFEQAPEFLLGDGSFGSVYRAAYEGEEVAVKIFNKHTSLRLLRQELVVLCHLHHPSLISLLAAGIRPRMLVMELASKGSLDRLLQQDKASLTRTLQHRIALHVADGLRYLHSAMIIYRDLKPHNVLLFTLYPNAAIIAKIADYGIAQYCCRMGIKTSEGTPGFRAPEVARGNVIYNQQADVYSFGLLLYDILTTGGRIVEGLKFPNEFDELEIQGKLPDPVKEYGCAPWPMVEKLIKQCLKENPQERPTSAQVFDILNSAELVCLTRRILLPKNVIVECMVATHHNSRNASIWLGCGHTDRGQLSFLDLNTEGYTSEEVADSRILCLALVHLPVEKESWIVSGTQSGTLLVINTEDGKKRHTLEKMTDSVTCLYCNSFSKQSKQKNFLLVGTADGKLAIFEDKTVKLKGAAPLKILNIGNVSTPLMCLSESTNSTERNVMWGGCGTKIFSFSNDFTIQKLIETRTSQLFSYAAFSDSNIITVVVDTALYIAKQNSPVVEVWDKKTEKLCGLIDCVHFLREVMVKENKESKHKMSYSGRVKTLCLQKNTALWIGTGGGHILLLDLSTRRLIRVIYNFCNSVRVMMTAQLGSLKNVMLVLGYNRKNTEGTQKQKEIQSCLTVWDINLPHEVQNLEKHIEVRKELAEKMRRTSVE

Series 1
Target: Calcium/calmodulin-dependent protein kinase type II subunit alpha (CAMK2A, Homo sapiens, UniProt Q9UQM7)
Chain of UniProt Q9UQM7 (whole entry, looked up): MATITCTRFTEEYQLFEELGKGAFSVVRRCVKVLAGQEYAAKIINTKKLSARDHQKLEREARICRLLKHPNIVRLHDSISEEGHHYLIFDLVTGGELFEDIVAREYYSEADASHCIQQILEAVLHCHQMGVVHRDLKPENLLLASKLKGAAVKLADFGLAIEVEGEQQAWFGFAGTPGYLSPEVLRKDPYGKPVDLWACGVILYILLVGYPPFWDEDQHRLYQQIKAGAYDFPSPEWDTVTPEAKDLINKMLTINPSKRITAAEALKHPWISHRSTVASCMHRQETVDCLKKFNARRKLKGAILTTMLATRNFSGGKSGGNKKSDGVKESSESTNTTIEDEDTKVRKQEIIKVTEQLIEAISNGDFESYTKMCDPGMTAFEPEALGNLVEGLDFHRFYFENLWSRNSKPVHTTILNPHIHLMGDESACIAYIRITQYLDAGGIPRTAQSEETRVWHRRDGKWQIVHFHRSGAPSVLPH
Effect on: enzyme activity
Mode: inhibitor
Tested at: 10 µM
SMILES | inhibition
CCCC[C@H](N)C(=O)O | 20%
COc1ccc2c(OC)c3ccoc3nc2c1 | -5%
CC1(C)O[C@@H]2C[C@H]3[C@@H]4CCC5=CC(=O)C=C[C@]5(C)[C@@]4(F)[C@@H](O)C[C@]3(C)[C@]2(C(=O)CO)O1 | -3%
CC1=C(C)C(=O)C(C(CCCCCC(=O)O)c2ccccc2)=C(C)C1=O (stereo not shown) | -12%
CC1(C)S[C@@H]2[C@H](NC(=O)C(c3ccccc3)S(=O)(=O)O)C(=O)N2[C@H]1C(=O)O (stereo partly shown) | -3%
CSC[C@H]1O[C@@H](n2cnc3c(N)ncnc32)[C@H](O)[C@@H]1O | 9%
Clc1ccc(C(Cn2ccnc2)OCc2ccc(Sc3ccccc3)cc2)c(Cl)c1 (stereo not shown) | -6%
Cc1cccc(Nc2ccncc2S(=O)(=O)NC(=O)NC(C)C)c1 | -3%
CCN1CCCC1CNC(=O)c1cc(S(=O)(=O)CC)c(N)cc1OC (stereo not shown) | 0%
CC(=O)N[C@@H](CCCN=C(N)N)C(=O)O | -4%
Cc1ncc([N+](=O)[O-])n1CCO | -3%
O=c1c(O)c(-c2ccc(O)cc2)oc2c(O)c(O)cc(O)c12 | -2%
Cc1ccc2c(c1)c1c(n2CCc2ccc(C)nc2)CCN(C)C1 | 3%
CC(=O)N[C@@H](CCC(N)=O)C(=O)O | 0%
O=P(O)(O)C(O)(Cc1cccnc1)P(=O)(O)O | -8%
CC(=O)OC(C)OC(=O)C(C)c1ccc(-c2ccccc2)c(F)c1 (stereo not shown) | -7%
CC[C@H](C)[C@H](N)C(=O)O | -6%
CC(C)C[C@@H](N)C(=O)O | 9%
O=c1c(O)cc([C@H]2Oc3cc(O)cc(O)c3C[C@H]2O)cc2c([C@H]3Oc4cc(O)cc(O)c4C[C@H]3O)cc(O)c(O)c12 | -13%
CC1(C)NC(=O)N(c2ccc([N+](=O)[O-])c(C(F)(F)F)c2)C1=O | -12%
CC(=O)c1ccc2c(c1)N(CCCN1CCC(CCO)CC1)c1ccccc1S2 | -7%

Series 2
SMILES: Cc1cncc2cccc(S(=O)(=O)N3CCCN(C(=O)CN)C[C@@H]3C)c12
Effect on: enzyme activity
Mode: inhibitor
Tested at: 0.5 µM
Baseline: control
target | remaining activity [%]
G protein-coupled receptor kinase 5 (GRK5, Homo sapiens, UniProt P34947) | 97.1
Calcium/calmodulin-dependent protein kinase type 1G (CAMK1G, Homo sapiens, UniProt Q96NX5) | 94.6
Mitogen-activated protein kinase 10 (MAPK10, Homo sapiens, UniProt P53779) | 103
Serine/threonine-protein kinase Nek9 (NEK9, Homo sapiens, UniProt Q8TD19) | 98.6
Myotonin-protein kinase (DMPK, Homo sapiens, UniProt Q09013) | 105
Proto-oncogene tyrosine-protein kinase ROS (ROS1, Homo sapiens, UniProt P08922) | 60.3
Protein-tyrosine kinase 2-beta (PTK2B, Homo sapiens, UniProt Q14289) | 92.5
Dual specificity tyrosine-phosphorylation-regulated kinase 4 (DYRK4, Homo sapiens, UniProt Q9NR20) | 90.3
Cyclin-dependent kinase 2, with cyclin A (CDK2, Homo sapiens, UniProt P24941) | 98.4
Proto-oncogene tyrosine-protein kinase receptor Ret (RET, Homo sapiens, UniProt P07949) | 94.4
Homeodomain-interacting protein kinase 3 (HIPK3, Homo sapiens, UniProt Q9H422) | 105
Aurora kinase A (AURKA, Homo sapiens, UniProt O14965) | 64.7

Series 3
Compound: Cn1cc(Cl)c2c(Oc3c(F)cc(Nc4cc(Cl)nc(N)n4)cc3F)ccnc21
Effect on: cell-free assay
Technique: competition with immobilised ligand
Tested at: 0.1 µM
target | remaining binding [%]
Receptor-type tyrosine-protein kinase FLT3 (FLT3, Homo sapiens, UniProt P36888, R834Q) | 83
Mast/stem cell growth factor receptor Kit, autoinhibited (KIT, Homo sapiens, UniProt P10721) | 78
Ephrin type-A receptor 3 (EPHA3, Homo sapiens, UniProt P29320) | 83
Tyrosine-protein kinase Lck (LCK, Homo sapiens, UniProt P06239) | 100
Leucine-rich repeat serine/threonine-protein kinase 2 (LRRK2, Homo sapiens, UniProt Q5S007, G2019S) | 100
Epidermal growth factor receptor (EGFR, Homo sapiens, UniProt P00533, L858R/T790M) | 84
Serine/threonine-protein kinase LATS1 (LATS1, Homo sapiens, UniProt O95835) | 69
Mitogen-activated protein kinase kinase kinase kinase 3 (MAP4K3, Homo sapiens, UniProt Q8IVH8) | 100
Dual specificity protein kinase CLK1 (CLK1, Homo sapiens, UniProt P49759) | 96
Myosin light chain kinase family member 4 (MYLK4, Homo sapiens, UniProt Q86YV6) | 91
Cyclin-dependent kinase 13 (CDK13, Homo sapiens, UniProt Q14004) | 77
Vascular endothelial growth factor receptor 2 (KDR, Homo sapiens, UniProt P35968) | 93
Cyclin-dependent kinase 4, with cyclin D1 (CDK4, Homo sapiens, UniProt P11802) | 100
Serine/threonine-protein kinase SIK3 (SIK3, Homo sapiens, UniProt Q9Y2K2) | 100
Epidermal growth factor receptor (EGFR, Homo sapiens, UniProt P00533, del747-750/T751S) | 88
Mitotic checkpoint serine/threonine-protein kinase BUB1 (BUB1, Homo sapiens, UniProt O43683) | 82
Phosphatidylinositol 4,5-bisphosphate 3-kinase catalytic subunit alpha isoform (PIK3CA, Homo sapiens, UniProt P42336, E545A) | 88
Receptor-interacting serine/threonine-protein kinase 4 (RIPK4, Homo sapiens, UniProt P57078) | 100
cGMP-dependent protein kinase 2 (PRKG2, Homo sapiens, UniProt Q13237) | 83
Serine/threonine-protein kinase PLK3 (PLK3, Homo sapiens, UniProt Q9H4B4) | 98
LIM domain kinase 2 (LIMK2, Homo sapiens, UniProt P53671) | 100
Mitogen-activated protein kinase 13 (MAPK13, Homo sapiens, UniProt O15264) | 95

Series 4
Target: WD repeat-containing protein 5 (WDR5, Homo sapiens, UniProt P61964)
Technique: differential scanning fluorimetry
Tested at: concentration not given
Notes: unit not given
Baseline: WDR5 alone
SMILES | ΔTm
C[C@@H]1CN(c2ccc(-c3cc(C(=O)NCCOCCOCCOCCOCCOCCOCCOCCOCCOCCNC(=O)/C=C/c4[nH]cc(C(=O)N[C@@H](CC(N)=O)c5ccc(F)c(Cl)c5)c4-c4ccc(Cl)cc4F)ccc3F)cc2NC(=O)c2c[nH]c(=O)cc2C(F)(F)F)C[C@H](C)N1C | 8.86 and 8.9 and 9 and 9.08 and 8.94 and 8.59 and 8.89
C[C@@H]1CN(c2ccc(-c3cc(C(=O)NCCOCCOCCOCCOCCOCCOCCNC(=O)/C=C/c4[nH]cc(C(=O)N[C@@H](CC(N)=O)c5ccc(F)c(Cl)c5)c4-c4ccc(Cl)cc4F)ccc3F)cc2NC(=O)c2ccc(F)cc2C(F)(F)F)C[C@H](C)N1C | 6.08 and 5.44 and 6.16 and 5.31 and 5.72 and 6.26 and 6.22 and 6.06
C[C@@H]1CN(c2ccc(-c3cc(C(=O)NCCCNC(=O)/C=C/c4[nH]cc(C(=O)N[C@@H](CC(N)=O)c5ccc(F)c(Cl)c5)c4-c4ccc(Cl)cc4F)ccc3F)cc2NC(=O)c2c[nH]c(=O)cc2C(F)(F)F)C[C@H](C)N1C | 5.7 and 5.78 and 6.27 and 6.23 and 5.79 and 5.98 and 5.92 and 5.56

Excerpt of the above (series 1):
SMILES | inhibition
CC1=C(C)C(=O)C(C(CCCCCC(=O)O)c2ccccc2)=C(C)C1=O (stereo not shown) | -12%
CC1(C)NC(=O)N(c2ccc([N+](=O)[O-])c(C(F)(F)F)c2)C1=O | -12%
CC[C@H](C)[C@H](N)C(=O)O | -6%
Cc1ncc([N+](=O)[O-])n1CCO | -3%
O=P(O)(O)C(O)(Cc1cccnc1)P(=O)(O)O | -8%
Cc1cccc(Nc2ccncc2S(=O)(=O)NC(=O)NC(C)C)c1 | -3%
CC(C)C[C@@H](N)C(=O)O | 9%
